Measurements from different studies.
Numbered parts are unrelated; each lists some results of a single study. Values joined by “and” are separate records of one study, mostly repeats; a detail may differ.

Sample 1 — cell line: HEK-293T/ACE2; concentration: 10 µM; time: 16 h; baseline: vehicle
`CC(C)c1nc(N(C)S(C)(=O)=O)nc(-c2ccc(F)cc2)c1/C=C/[C@@H](O)C[C@@H](O)CC(=O)O` gave a viability of 100%.
With `Cc1cc2nc3c(=O)[nH]c(=O)nc-3n(C[C@H](O)[C@H](O)[C@H](O)CO)c2cc1C` the viability was 100%.
With `Cc1cc(C2CCCCC2)n(O)c(=O)c1` the viability was 74%.
For `Nc1nc(Cl)nc2c1ncn2[C@H]1C[C@H](O)[C@@H](CO)O1`, the viability was 84.4%.
The viability of `Cc1noc(NS(=O)(=O)c2ccc(N)cc2)c1C` is reported as 105%.
The viability of `O=C(OOC(=O)c1ccccc1)c1ccccc1` is reported as 101%.
With `Cc1ccc(Sc2ccccc2N2CCNCC2)c(C)c1` the viability was 98.9%.
The viability of `CC1COc2c(N3CCN(C)CC3)c(F)cc3c(=O)c(C(=O)O)cn1c23` (stereo not shown) is reported as 104%.
`COc1ccc2nc(SCc3ncc(C)c(OC)c3C)[nH]c2c1` gave a viability of 102%.
For `CN(C)[C@@H]1C(O)=C(C(N)=O)C(=O)[C@@]2(O)C(O)=C3C(=O)c4c(O)cccc4[C@@](C)(O)[C@H]3C[C@@H]12`, the viability was 106%.
The viability of `C[C@H](CS)C(=O)N1CCC[C@H]1C(=O)O` is reported as 99.8%.
`CC1Cc2ccccc2N1NC(=O)c1ccc(Cl)c(S(N)(=O)=O)c1` (stereo not shown) gave a viability of 102%.

Sample 2 — cell line: HEK-293T-ACE2-TMPRSS2; method: cell count; concentration: 10 µM
With `O=C(NC1CCCCCC1)c1ccc(-c2ccc(F)cc2)nc1` the viability was 108%.
The viability of `O=C(c1cccc(N2CCCN(Cc3ccccc3)C2=O)c1)N1CCN(c2cccc(Cl)c2)CC1` is reported as 78%.
With `COc1ccc2cc3c(N)nn(C(=O)Cc4c[nH]c5ccccc45)c3nc2c1` the viability was 89%.
With `O=S(=O)(c1ccc(-c2nnc(C3CCC3)o2)o1)N1CCN(C2CCCCC2)CC1` the viability was 147%.
The viability of `COCc1noc([C@@H]2CC(F)(F)CN2C(=O)c2cc(C)n[nH]2)n1` is reported as 97%.
The viability of `CCS(=O)(=O)N1C[C@@H](COC)[C@H](c2ccncc2)C1` is reported as 106%.
The viability of `N#CC1(NC(=O)Cn2ncc(Cl)c(Cl)c2=O)CCCCC1` is reported as 71%.
The viability of `N#CC(=NNc1ccc(OC(F)(F)F)cc1)C(=O)c1ccc(Cl)cc1` is reported as 77%.
`CC(=O)c1cc2cc3c4c(c2oc1=O)CCCN4CCC3` gave a viability of 132%.
With `Cc1sc2nc(CN3CCCC3)nc(Sc3nnnn3C3CCCC3)c2c1C` the viability was 68%.
For `CCN(c1ccc2sc(C(=O)Nc3cccc(OC)c3)cc2c1)S(C)(=O)=O`, the viability was 75%.
The viability of `CS(=O)(=O)c1cc(C(F)(F)F)cc(S(C)(=O)=O)c1S(C)(=O)=O` is reported as 66%.
`CCS(=O)(=O)c1ncc(Cl)c(C(=O)Nc2ccc(S(=O)(=O)N(C)c3ccccc3)cc2)n1` gave a viability of 65%.
For `CCc1ccc(NC(=O)c2cnc(N3CCN(c4ccccn4)CC3)c3ccccc23)cc1`, the viability was 71%.
`Cc1cc(OC(C)C(=O)Nc2ccccc2Br)nc(N2CCN(c3ccccc3)CC2)n1` (stereo not shown) has a viability of 93%.
The viability of `CCc1ccccc1-c1ncnc2[nH]ccc12` is reported as 67%.
The viability of `CCn1ccnc1Cn1cnc(-c2ccccc2)c1-c1c(OC)cccc1OC` is reported as 74%.
With `O=C(Nc1ccc(Br)cc1)c1c(O)cccc1O` the viability was 129%.
The viability of `O=c1c(Cl)c(Cl)cnn1Cn1nnc2ccccc2c1=O` is reported as 83%.
For `CCN(CC(=O)Nc1cc(Cl)ccc1C)c1ncnc2c1oc1ccccc12`, the viability was 87%.
For `CC(=O)c1ccc(NC(=O)CSc2nnc(-c3nc(-c4ccccc4)no3)n2C)cc1`, the viability was 107%.
With `CCC(NC(=O)Nc1cccc(C)c1C)c1c(-n2cccc2)sc2c1CCN(C)C2` (stereo not shown) the viability was 108%.
`COCCc1noc([C@@H]2CN(Cc3ccc(C)o3)C[C@H]2CO)n1` has a viability of 90%.

Sample 3 — read-out: cell-free assay; concentration: 10 µM
Target: Sodium-dependent serotonin transporter (SLC6A4, Homo sapiens, UniProt P31645)
Chain of UniProt P31645 (whole entry, looked up): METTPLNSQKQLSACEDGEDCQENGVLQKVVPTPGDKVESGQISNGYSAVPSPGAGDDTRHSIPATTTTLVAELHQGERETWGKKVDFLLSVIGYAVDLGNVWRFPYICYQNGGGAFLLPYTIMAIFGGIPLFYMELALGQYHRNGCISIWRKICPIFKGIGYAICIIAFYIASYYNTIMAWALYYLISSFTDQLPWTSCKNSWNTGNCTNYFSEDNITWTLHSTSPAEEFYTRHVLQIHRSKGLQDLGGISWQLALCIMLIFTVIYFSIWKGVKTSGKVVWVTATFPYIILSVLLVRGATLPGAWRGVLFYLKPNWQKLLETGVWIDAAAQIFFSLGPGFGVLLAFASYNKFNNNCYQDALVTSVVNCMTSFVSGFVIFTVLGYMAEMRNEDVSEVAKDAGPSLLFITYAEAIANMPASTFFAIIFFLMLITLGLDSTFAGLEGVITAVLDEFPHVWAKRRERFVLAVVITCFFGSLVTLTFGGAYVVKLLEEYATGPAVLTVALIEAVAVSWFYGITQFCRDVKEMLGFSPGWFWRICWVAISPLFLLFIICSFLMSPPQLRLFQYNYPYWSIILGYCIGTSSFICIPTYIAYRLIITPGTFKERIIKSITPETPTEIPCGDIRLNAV
With `COCCOc1nc(-c2ccc(Cl)nc2)nc2c1CN(C(=O)c1ncn3ccccc13)CC2` the inhibition was 2.72%.
`Cc1noc([C@H]2C[C@@H](c3ccc(C(F)(F)F)cc3)CN(C(=O)N3CCS(=O)(=O)C3)C2)n1` gave an inhibition of 5.57%.
The inhibition of `CS(=O)(=O)N1CCCC(NC(=O)[C@H](CCC2CCCCC2)NC(=O)c2ccc(CNC(=O)c3cnc4ccccn34)cc2)C1` (stereo partly shown) is reported as 19.8%.
`Cn1cc(Cl)c2c(Oc3c(F)cc(Nc4cc(Cl)nc(N)n4)cc3F)ccnc21` has an inhibition of -5.34%.
`COc1cc(C(=O)O)ncc1C#Cc1ccccc1NS(=O)(=O)c1cccc2c(N(C)C)ccnc12` gave an inhibition of 3.99%.
For `CO[C@H]1CC[C@H](CNc2ccc(S(=O)(=O)NC(=O)c3ccc(N4CCN(CC5=C(c6ccc(Cl)cc6)CC(C)(C)CC5)CC4)cc3Oc3cnc4[nH]ccc4c3)cc2[N+](=O)[O-])CC1`, the inhibition was 25.1%.
With `Nc1cnc(N2CCc3cc(S(=O)(=O)Nc4c(F)cc(Cl)cc4F)cc(N4CCCC4=O)c32)nc1` the inhibition was 9.34%.
For `CN(C)C(=O)Cn1cc(-c2nc(C3(c4ccc(-c5cnc(N)nc5)cc4)CC3)no2)cn1`, the inhibition was 5.35%.
`C[C@@H](NC(=O)Nc1cc2[nH]ncc2c(CO)n1)c1ccccc1` gave an inhibition of 2.86%.
`CC1CCN(c2ccnc(NCc3cn(C)cn3)n2)CC1` gave an inhibition of 5.83%.
`O=C(N[C@H]1CCCCC/C=C\C2C[C@@]2(C(=O)O)NC(=O)[C@@H]2C[C@@H](Oc3ccncc3)CN2C1=O)OC1CCCC1` (stereo partly shown) gave an inhibition of -6.94%.
The inhibition of `Cc1ccc(-c2cnc([C@@]3(O)CC[C@H](C(=O)O)C(C)(C)C3)s2)cc1Nc1cccc(C(F)(F)F)n1` is reported as 15.7%.
`NC(=O)c1ccc2nc(-c3ccc(C4(N)CCC4)cc3)c(-c3ccccc3)n2n1` gave an inhibition of 14.8%.
`O=C(NCCCC1CCCCC1)c1ccc(CNC(=O)c2cnn(-c3ccccc3)c2C(F)(F)F)cc1` has an inhibition of 0.18%.
With `C[C@H](c1ccc(F)cc1)N(Cc1cccc(C(=O)O)c1)C(=O)c1cnc2ccccc2c1` the inhibition was 23.4%.
For `CCC(F)(F)c1cc(N2CCC(S(C)(=O)=O)CC2)nc2sc(C(N)=O)c(N)c12`, the inhibition was 8.94%.
`CCC(=NO)C(C)=Cc1ccc(F)c(C)c1` has an inhibition of 8.28%.
For `CS(=O)(=O)c1cc(C2(NC(=O)c3cncc4c3cnn4-c3ccc(F)cc3)CC2)ccn1`, the inhibition was -2.94%.
`O=S(=O)(NC1CCC(c2cc(F)ccc2F)(S(=O)(=O)c2ccc(Cl)cc2)CC1)C(F)(F)F` (stereo not shown) gave an inhibition of -3.67%.
For `Cc1ncc(-c2cc(Cl)ccc2F)cc1-n1c(=O)n(CC(N)=O)c2ccccc21`, the inhibition was 14.3%.
With `Cn1nc(C(F)(F)F)cc1-c1cnc(N2CCc3cc(S(=O)(=O)Nc4c(F)cc(Cl)cc4F)cc(N4CCCC4=O)c32)nc1` the inhibition was 0.95%.
With `NS(=O)(=O)c1cc(NC(=O)C2(c3ccccc3Cl)CC2)ccc1Oc1cccc(Cl)c1` the inhibition was 8.86%.

Sample 4 — organism: Sarcocystis neurona; read-out: parasite growth; concentration: 10 µM; setting: secondary screen
The inhibition of `CNC(=O)Oc1ccc2c(c1)[C@]1(C)CCN(C)[C@@H]1N2C.CNC(=O)Oc1ccc2c(c1)[C@]1(C)CCN(C)[C@@H]1N2C.O=S(=O)(O)O` is reported as -61%.
`CC[C@]1(O)CC[C@H]2[C@@H]3CCC4=CCCC[C@@H]4[C@H]3CC[C@@]21C` has an inhibition of -33.4%.
`COc1cc2c(cc1OC)[C@@]13CCN4CC5=CCO[C@H]6CC(=O)N2[C@H]1[C@H]6[C@H]5C[C@H]43` has an inhibition of -21.4%.
`CCN(C(C)=O)c1cccc(-c2ccnc3c(C#N)cnn23)c1` has an inhibition of -43.5%.
`CNC1CC(c2ccc(Cl)c(Cl)c2)c2ccccc21` (stereo not shown) has an inhibition of -9.9%.
`CNC1=Nc2ccc(Cl)cc2C(c2ccccc2)=[N+]([O-])C1` gave an inhibition of -20.6%.
`C[C@]12CC[C@H]3[C@@H](CCC4=CC(=O)CC[C@@]43C)[C@@H]1CC[C@@H]2O` has an inhibition of 2.3% and 9%.

Some of these lines once more (sample 2):
The viability of `CCS(=O)(=O)N1C[C@@H](COC)[C@H](c2ccncc2)C1` is reported as 106%.
The viability of `N#CC1(NC(=O)Cn2ncc(Cl)c(Cl)c2=O)CCCCC1` is reported as 71%.
The viability of `N#CC(=NNc1ccc(OC(F)(F)F)cc1)C(=O)c1ccc(Cl)cc1` is reported as 77%.
`CC(=O)c1cc2cc3c4c(c2oc1=O)CCCN4CCC3` gave a viability of 132%.
With `Cc1sc2nc(CN3CCCC3)nc(Sc3nnnn3C3CCCC3)c2c1C` the viability was 68%.
For `CCN(c1ccc2sc(C(=O)Nc3cccc(OC)c3)cc2c1)S(C)(=O)=O`, the viability was 75%.
The viability of `CS(=O)(=O)c1cc(C(F)(F)F)cc(S(C)(=O)=O)c1S(C)(=O)=O` is reported as 66%.
`CCS(=O)(=O)c1ncc(Cl)c(C(=O)Nc2ccc(S(=O)(=O)N(C)c3ccccc3)cc2)n1` gave a viability of 65%.
For `CCc1ccc(NC(=O)c2cnc(N3CCN(c4ccccn4)CC3)c3ccccc23)cc1`, the viability was 71%.
